Published values collected from several papers.
Every numbered part comes from another study and shows a few of its results, in no order. Positions count from the first letter of the parent shown.

Block 1
Target: Prothrombin, mature alpha-thrombin (F2, Homo sapiens, UniProt P00734)
Technique: aptamer microarray, sandwich
Molecule type: DNA with 2'F-ANA
Medium: in vitro
Tested at: 200 nM
Notes: whole 15-mer aptamer, many near background
With: Cy3 exosite-II aptamer, 400 nM
Reading: higher = stronger binding
Strand: GGTTGGTGTGGTTGG
Modification	mean fluorescence intensity [a.u.]
2'F-ANA at 1 2 4 7 8 10 11 13	48.3
2'F-ANA at 1 4 7 9 11 14 15	48.1
2'F-ANA at 2 3 4 6 8 9 10 11 14 15	155
2'F-ANA at 5 6 7 8 9 10 11 14	48
2'F-ANA at 3 4 5 6 9 12 13 14 15	51.1
2'F-ANA at 2 3 4 6 7 9 10 14 15	163
2'F-ANA at 1 4 5 7 8 9 10 14 15	46.7
2'F-ANA at 3 4 5 7 8 9 11 13 14 15	53.4
2'F-ANA at 1 6 7 8 11 14	58.1
2'F-ANA at 6 9 14	169
2'F-ANA at 1 2 4 5 6 8 9 11 12 13 14 15	101
2'F-ANA at 4 5 8 10 13 14	77
2'F-ANA at 1 4 5 8 9 10 12 13 14 15	51.2
2'F-ANA at 1 4 9 11 12 14	50.3
2'F-ANA at 7 8 11 13 14 15	204
2'F-ANA at 1 2 4 10 13 15	45.6
2'F-ANA at 2 4 7	396
2'F-ANA at 2 3 4 6 7 9 10 11 12 13	193
2'F-ANA at 1 2 3 10 12 13	92.4
2'F-ANA at 1 2 5 7 8 9 12 13 15	84.3
2'F-ANA at 2 5 7 9 10 11 12	50.2
2'F-ANA at 5 6 8 10 13	44.2
2'F-ANA at 2 7 10 11 12 13 15	155
2'F-ANA at 2 6 7 8 10 11 13 14 15	77.6
2'F-ANA at 1 7 8 11 13	210

Block 2
Target: CCNB2, cyclin fold, Cln2 fusion (human)
Technique: yeast growth competition, sequencing
Medium: yeast
Notes: weak parent motif
Baseline: not given
Reading: higher = stronger binding
Starting sequence: GMNC docking peptide (human); KNAKRNLSSEFAN; partner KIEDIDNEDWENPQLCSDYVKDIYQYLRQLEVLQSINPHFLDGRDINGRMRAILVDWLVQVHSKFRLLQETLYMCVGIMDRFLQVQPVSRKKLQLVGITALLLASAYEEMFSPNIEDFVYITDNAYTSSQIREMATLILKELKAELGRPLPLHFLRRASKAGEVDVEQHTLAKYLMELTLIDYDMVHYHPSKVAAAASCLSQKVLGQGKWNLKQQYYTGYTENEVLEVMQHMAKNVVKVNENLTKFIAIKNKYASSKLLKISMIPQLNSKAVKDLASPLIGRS
Substitution	normalised enrichment score
KNAKRNLMSEFAN [S8M]	1.33
KNAKRNLSNEFAN [S9N]	0.924
KNAKRRLSSEFAN [N6R]	0.476
KNAKRNMSSEFAN [L7M]	0.354
KNAKRNLSSEFSN [A12S]	0.525
KNAKRNLQSEFAN [S8Q]	0.787
KNAKRNLSHEFAN [S9H]	0.485
KNAKRNLSSEFYN [A12Y]	0.197
KNAKRNLSSEEAN [F11E]	0.0342
KNAKRNLSREFAN [S9R]	0.784
KNAKRNLCSEFAN [S8C]	0.416
KDAKRNLSSEFAN [N2D]	0.403
KNAKRNLKSEFAN [S8K]	0.336
KNAKRNLSSLFAN [E10L]	-0.0732
KNAKRNYSSEFAN [L7Y]	0.45
KNAKRYLSSEFAN [N6Y]	-0.202
KNAKRNLSSPFAN [E10P]	-0.0681
KNAKRNLSSEFWN [A12W]	0.24
KNIKRNLSSEFAN [A3I]	1.76
KNAKRTLSSEFAN [N6T]	0.423
KNAKRNLSSEQAN [F11Q]	0.303
KNAKRNLSWEFAN [S9W]	0.812
KNDKRNLSSEFAN [A3D]	0.134
KNAKRHLSSEFAN [N6H]	-0.0503
KNAKRNASSEFAN [L7A]	0.774

Block 3
Target: RING finger protein unkempt homolog, zinc fingers 1-6, GST-SBP tag (UNK, Homo sapiens, UniProt Q9C0B0, residues 30-357)
Chain of UniProt Q9C0B0 (30-357, looked up): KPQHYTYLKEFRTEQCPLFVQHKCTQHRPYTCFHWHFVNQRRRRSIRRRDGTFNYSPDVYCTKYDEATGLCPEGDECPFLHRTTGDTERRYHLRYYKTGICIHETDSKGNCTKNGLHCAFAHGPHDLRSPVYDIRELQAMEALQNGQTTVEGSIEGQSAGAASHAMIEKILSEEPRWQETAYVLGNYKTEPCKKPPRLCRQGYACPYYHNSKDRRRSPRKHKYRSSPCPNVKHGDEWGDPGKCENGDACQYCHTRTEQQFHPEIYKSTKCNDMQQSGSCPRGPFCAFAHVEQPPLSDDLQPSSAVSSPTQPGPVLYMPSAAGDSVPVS
Technique: RNA Bind-n-Seq
Molecule type: RNA
Medium: in vitro
Tested at: not given
Notes: RNA with constant flanks, human and mouse sites, ends assumed
Baseline: input RNA pool
Reading: higher = stronger binding
Shared flanks, not repeated: GGGAGUUCUACAGUCCGACGAUC … CAACAGAGGAUUGAGCAUCA
Strand	bound/input enrichment [ratio]
UUCCGAAGCACUCCCAUUUGUCUCGUCCCGGCCUGGCCAGAUAUUUCCUCUGAAUUUUUUUUUUUUUUUUCAUUAAAAGACACCCAUGUGCGAUGAAACUUUCUAAAAAUCUGUCCUGUG	0.394
UCCUCCCUUGCCCCAUUAUCUUUUCACCUCCCAGGUCUACCAUUUCAUGGUGGUCGUUGGGUCCGCCUAAAGGAUUUGAGCGUUUGCCAUUGCAAGCAUAGUGCUGUGUCAUCCUGGUCC	0.277
AUUUUCUUUAUGUGUGAAGACACAAAGUAUGGGGGAAGACAGCAAUCAAAACUAACUUUUUGUAGAUAGCCAUUUCAUUUCUUUAAACUGUUUCAACGCCAAUAUGUAUUCUACAAAAGA	1.46
GGCCUGGGACCGUCCUGGGCUAGUACAAAUAGCGGCAGUGGAGGCUCGAGAGGAAAGUUUGUUAGUGGAGGCAGUGGUAGAGGCCGUCAUGUACGGUCCUUUACUCGAUAGAUGUGUUCU	0.65
AAUAACUAUUGUUUACAGAUAAAUCCAGCAUCAACUAUAAAUCCUGACCAUCUUUCAUACUUCUGUUUUAUUGGUCGCUUUAUUGCAAUGGCACUGUUCCAUGGAAAGUUUAUUGAUACU	0.21
GAGGAGUCUGGGUUCAGGGAGCCCGUGCUGGAUGCCAAGUCGGAGGUCACGGGCCAGCUUAUAGAUUUUCAGUGGAAACUGGGCAUGGCUGUGAGCUCUGACAGCUGCAGAUCUCUCAAG	0.0754
UUACAUACUCUAGAGGAAGAAAAGGAAGAACUAGCUCAGUAUCAGAAGUGGGAUAAAAUGAGACGAGCCCUGGAAUAUACCAUUUACAAUCAGGAACUUAACGAGACUCGUGCCAAACUU	0.239
AAGAGAAAGAAGGUUAAGCUGGCUGUCCUGAAAUAUUAUAAGGUGGAUGAGAAUGGCAAAAUUAGUCGCCUUCGUCGAGAGUGCCCUUCUGAUGAAUGUGGUGCUGGGGUGUUUAUGGCA	0.663
GUCCUUAGGCUUACAAUGUGCACUGAAUCGUUUCAUGUAAGAAUCCAAAGUGGACACCAUUAACAGGUCUUUGAAAUAUGCAUGUACUUUAUAUUUUCUAUAUUUGUAACUUUGCAUGUU	0.492
AAUGAAACUGCAGAAAAAACCCUGGGAGUCCUGGCAGAUGAAGACAACACAUUGCAACAAAAUAGCAGCAGCAGAAAUACCAGCUACAGCAGUGCAGUGCAAAAAGAAAUCACACUGCCU	0.191
UGAGGUUGAUAUGUCAGACCUCUCCCCAGAGGAGCAGUGGAGGGUCGAACAUGCUCGAAUGCAUGCCAAACAUCGUGGCCACGAAGCCAUGCACGCUGAAAUGGUCCUCAUCCUCAUUGC	0.0523

Block 4
Target: RNA binding protein fox-1 homolog 2, RRM domain, GST-SBP tag (RBFOX2, Homo sapiens, UniProt O43251-10, residues 100-194)
Technique: RNA Bind-n-Seq
Molecule type: RNA
Medium: in vitro
Tested at: 365 nM
Notes: natural RNA segment, single round, ends assumed
Baseline: no-protein control
Reading: higher = stronger binding
Shared flanks, not repeated: GGGAGUUCUACAGUCCGACGAUC … UGGAAUUCUCGGGUGCCAA
Residues (chain): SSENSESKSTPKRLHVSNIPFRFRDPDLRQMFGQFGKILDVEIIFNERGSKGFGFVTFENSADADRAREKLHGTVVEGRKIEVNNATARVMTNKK
Strand	RBNS enrichment (R)
UUAUCUUAAUACAUCAAGAAGGAAAUCAGAUUUCAGGCACACAUUAGCAAUUGUUUGUUAAUGUCCUUGGCAAACGUGUACCUGCUUUCCUUCAUUGUUCUCUUCAGGGG	0.477
CCGCAGCUCCAUUUUCUUAUUGCGCUGCUACCGUUGACUUCCAGGCACGGUUUGGAAAUAUUCACAUCGCUUCUGUGUAUCUCUUUCACAUUGUUUGCUGCUAUUGGAGG	0.324
UACUCUGAUUGGCUAGUUUGGGUUCAUUUUUACUGUAUAUUUAUAGUAAUAAAAUCAUGCAGCAAUAUUCUAUGUGUGCCUUUGUUCUGGCACAGCACUAUGUAGGCAGC	0.432
ACUACAAGCUGGAGUGUAGGAAUUGACUAUAGCAAUUUGAUACAUUUUUAAAGCUGCUUCCUGUUUGUUGAGGGUCUGUAUUCAUAGACCUUGACUGGAAUAUGUAAGAC	0.354
UCUUGAUGGUUUCCAGGCCUCGUUAUGCAUGGUUUGCUUGAUGCCCAUUUUUUGUGCCUUGUGCUGUUGGAUGGUAACGACCACUCACCAUGUAAACACAGUACCUCAGU	7.03
UUGAUCAGUUUUAUGCCGCAUUGUUCGUGGCAGUAGACCACAUCUGUUCGUCUGCACAGCUGUGAGGCGAUGCUGUUCCAUCUGCACAUGAAGGACCCCCAUACAGCCUG	0.391
AAAGUCUCACCCCUUUGUCUACGUUGCUUCCCCAAACCAUGAGCAGAGGGACUUCGAUGCCAAACCAGACUCGGGUCCCCUCCUGCUUCCCUUCCCCACUUAUCCCCCAA	0.376
CAAGCUAGAGAUUUUCAAAGCUACCCUUUUGAGUAAAACCCCUUAUUAAAAGAGAAACCAUGACUGGGUUUUUGUUUGUUCCUUGUCUUUGGGAGUAGUGCAGGCCUUUU	0.74
CCUCAGGACUGUUUUUGGGGGGCUGACUUGUCUUUCUACGUACGUACUUCCAGGCUGCAAGGUUUUGAAAUUUUCUGUACAGUUUGUGAGGACAUUUGCACUUUGCCACU	0.401
CUGCGCUUUGAUGGGGAGGAGGGCAGGUCCCUGUGCAGCCAGGGUUCUUGCUCCUUCCAUGGCAGGAUGAGAAGGAAGGCCUAAGAGGCUGGCCAGGGGCCUGGUGUAGA	0.835
CAGAGGAGAGAGGAGGCCGACGCCAGCGGUCCCCGCUCGGAACGGGGAGGGUUUUCGGGGGGUUCGGCGUCGCACCUUGGGGCCCCCCGCAGCCGUGUAGGGGGCCUCCC	0.565
UCCCUCUUCUGCCUUCUUCUCCUCUCCCCUCCGAGAGGGGCAGCCAGGAACUGCAACGGACUCACACUGUGCACGCUGGAUAGCGAAUAGCAGUAAGUAGCACACCCAUC	0.454

Excerpt of the above (block 3):
Strand	bound/input enrichment [ratio]
UCCUCCCUUGCCCCAUUAUCUUUUCACCUCCCAGGUCUACCAUUUCAUGGUGGUCGUUGGGUCCGCCUAAAGGAUUUGAGCGUUUGCCAUUGCAAGCAUAGUGCUGUGUCAUCCUGGUCC	0.277
AUUUUCUUUAUGUGUGAAGACACAAAGUAUGGGGGAAGACAGCAAUCAAAACUAACUUUUUGUAGAUAGCCAUUUCAUUUCUUUAAACUGUUUCAACGCCAAUAUGUAUUCUACAAAAGA	1.46
GGCCUGGGACCGUCCUGGGCUAGUACAAAUAGCGGCAGUGGAGGCUCGAGAGGAAAGUUUGUUAGUGGAGGCAGUGGUAGAGGCCGUCAUGUACGGUCCUUUACUCGAUAGAUGUGUUCU	0.65
AAUAACUAUUGUUUACAGAUAAAUCCAGCAUCAACUAUAAAUCCUGACCAUCUUUCAUACUUCUGUUUUAUUGGUCGCUUUAUUGCAAUGGCACUGUUCCAUGGAAAGUUUAUUGAUACU	0.21
GAGGAGUCUGGGUUCAGGGAGCCCGUGCUGGAUGCCAAGUCGGAGGUCACGGGCCAGCUUAUAGAUUUUCAGUGGAAACUGGGCAUGGCUGUGAGCUCUGACAGCUGCAGAUCUCUCAAG	0.0754
UUACAUACUCUAGAGGAAGAAAAGGAAGAACUAGCUCAGUAUCAGAAGUGGGAUAAAAUGAGACGAGCCCUGGAAUAUACCAUUUACAAUCAGGAACUUAACGAGACUCGUGCCAAACUU	0.239
AAGAGAAAGAAGGUUAAGCUGGCUGUCCUGAAAUAUUAUAAGGUGGAUGAGAAUGGCAAAAUUAGUCGCCUUCGUCGAGAGUGCCCUUCUGAUGAAUGUGGUGCUGGGGUGUUUAUGGCA	0.663
GUCCUUAGGCUUACAAUGUGCACUGAAUCGUUUCAUGUAAGAAUCCAAAGUGGACACCAUUAACAGGUCUUUGAAAUAUGCAUGUACUUUAUAUUUUCUAUAUUUGUAACUUUGCAUGUU	0.492
AAUGAAACUGCAGAAAAAACCCUGGGAGUCCUGGCAGAUGAAGACAACACAUUGCAACAAAAUAGCAGCAGCAGAAAUACCAGCUACAGCAGUGCAGUGCAAAAAGAAAUCACACUGCCU	0.191
